Assay results from different studies.
Each line is one published result; not all experiments were run side by side. ± marks the error that the study gave.
Nos2: Nitric oxide synthase, inducible (Nos2, Mus musculus, UniProt P29477)
MAOA: Amine oxidase [flavin-containing] A (MAOA, Homo sapiens, UniProt P21397)
Hrh3: Histamine H3 receptor (Hrh3, Rattus norvegicus, UniProt Q9QYN8)
SIGMAR1: Sigma non-opioid intracellular receptor 1 (SIGMAR1, Cavia porcellus, UniProt Q60492)
Caspase-2 circularly permuted: Caspase-2, circularly permuted (Homo sapiens, UniProt P42575)
Caspase-2: Caspase-2 (Homo sapiens, UniProt P42575)
FUT1: FUT1 (Homo sapiens, UniProt P19526)
PTR1: Pteridine reductase (PTR1, Trypanosoma brucei brucei, UniProt O76290)
Tmem97: Sigma intracellular receptor 2 (Tmem97, Rattus norvegicus, UniProt Q5U3Y7)
FUT8: Alpha-(1,6)-fucosyltransferase (FUT8, Homo sapiens, UniProt Q9BYC5)

The Ki of `CC[C@H](C)[C@H](NC(=O)[C@@H](NC(=O)[C@H](CO)NC(=O)[C@@H](NC(=O)[C@H](CCC(N)=O)NC(=O)[C@H](CCSC)NC(=O)[C@@H](N)CS)[C@@H](C)O)[C@@H](C)CC)C(=O)O` is reported as 245000 ± 71000 nM (Na(+)/H(+) exchange regulatory cofactor NHE-RF1, PDZ1 domain (NHERF1, Homo sapiens, UniProt O14745); binding to PDZ1 domain, inhibitor, fluorescence polarization).
With `CC(=O)Nc1cc(COc2c(Cl)cc(CC(N)C(=O)O)cc2Cl)c2oc(-c3ccccc3)nc2c1` (centres unmarked) the Ki was 1680 nM (SLC7A5 (Homo sapiens, UniProt Q01650); transporter uptake, inhibitor, radiometric).
For `Cc1cc(N)nc(CC2CNCC2NCCN)c1` (racemic), the Ki was 58400 nM (Nos2; enzyme activity, inhibitor).
For `COc1ccc(CCCN[C@@H]2CCC[C@H]2CN[C@@H]2CCC[C@H]2CNCCCCN[C@H]2CCC[C@@H]2CN)cc1`, the Ki was 350000 nM (MAOA; enzyme activity, inhibitor).
For `Clc1cc(CN2CCCCC2)ccc1OCCCN1CCN(c2cccc3sccc23)CC1`, the Ki was 89.4 nM (Hrh3; ligand displacement, radioligand; cell membranes).
`CCC1(CC)C(=O)N(c2cccc(CN3CCN(C)CC3)c2)C1=O` gave a Ki of > 2000 nM (DPP9 (Homo sapiens, UniProt Q86TI2); enzyme activity, inhibitor, fluorescence).
`Fc1cc(OCCCN2CCN(c3cccc4sccc34)CC2)ccc1CN1CCOCC1` has a Ki of 668 ± 32.5 nM (HRH1 (Cavia porcellus, UniProt P31389)).
For `OC[C@@H]1NC[C@H](O)[C@@H]1O`, the Ki was 220000 nM (Golgi alpha-mannosidase IIb (Drosophila melanogaster, UniProt Q9VF33); Dixon plot; together with: pNP-Man 0.5 to 4 mM).
For `c1cc(N2CCN(CCCOc3ccc(CN4CCCCC4)cc3)CC2)c2ccsc2c1`, the Ki was 47.2 nM (Hrh3; ligand displacement, radioligand; cell membranes).
For `O=C(c1ccc(SCCF)cc1)C1CCN(C2Cc3ccccc3CC2O)CC1` (single isomer, unassigned; (-)), the Ki was 30.8 nM (SIGMAR1; ligand displacement, radioligand).
For `CC(C)OC(=O)C(CS)N1C(=O)c2ccc(N(C)C)cc2C1=O` (centres unmarked), the Ki was 220 ± 10 nM (blaNDM-1 (Klebsiella pneumoniae, UniProt C7C422); enzyme activity, inhibitor; Km 0.55 µM, together with: chromacef 25 µM).
The Ki of `CC(=O)N[C@@H](CC(=O)O)C(=O)N[C@H](C(=O)N1CCC[C@H]1C(=O)N[C@H](C=O)CC(=O)O)C(C)C` is reported as 468 nM (Caspase-2 circularly permuted; enzyme activity, inhibitor; pH 6.5, 37 °C, together with: Z-VDVAD-AFC).
`Cc1cc(N)nc(C[C@@H]2CNC[C@@H]2OCCCCOc2cc(F)cc(Cl)c2)c1` gave a Ki of 12400 nM (Nos2; enzyme activity, inhibitor; pH 7.4).
For `CC[C@H](C)[C@H](NC(C)=O)C(=O)N[C@H](C(=O)N[C@H](C(=O)N[C@@H](CN)C(=O)N[C@H](C=O)CC(=O)O)C(C)C)[C@@H](C)O`, the Ki was 1170 nM (Caspase-2; enzyme activity, inhibitor, fluorescence; pH 6.5).
With `Nc1nc2c(ncn2[C@@H]2O[C@H](COP(=O)(O)OP(=O)(O)O[C@H]3O[C@@H](CNC(=O)CCc4ccccc4)[C@@H](O)[C@@H](O)[C@@H]3F)[C@@H](O)[C@H]2O)c(=O)[nH]1` the Ki was 2200 nM (FUT1; enzyme activity, inhibitor).
For `N=C(N)Nc1nc2ccc(Cl)cc2[nH]1`, the Ki was 21100 nM (PTR1; inhibitor; pH 3.7).
The Ki of `Cc1ccc(NC(=O)CCN2CCCCCC2)cc1C` is reported as 1.7 nM (SIGMAR1; ligand displacement, radioligand).
With `COc1cc2c(c(O)c1OC)C(=O)c1c(cc(C)c(O)c1OC)C2=O` the Ki was 6150 nM (MAOA; enzyme activity, inhibitor).
The Ki of `CC(Oc1cc(-c2ccccc2)nc2ccncc12)C(=O)N(C)c1ccccc1` (centres unmarked) is reported as 1.3 nM (TSPO (Homo sapiens, UniProt P30536, T147A); cell-free assay).
For `Brc1ccccc1-c1nnc(CSc2nnnn2-c2ccccc2)o1`, the Ki was 1500 nM (HTR2B (Homo sapiens, UniProt P41595); ligand displacement, radioligand).
With `CNC(=O)C1CCN(c2cc(C)c(F)cc2NC(=O)c2ccc(-c3cc(O)ccc3C)c(C)c2)CC1` the Ki was 186 nM (EPHA6 (Homo sapiens, UniProt Q9UF33); cell-free assay, TR-FRET).
The Ki of `C/C(=N\OCCN1CCCCC1)c1cccc(C(F)(F)F)c1` is reported as 250 nM (Tmem97; ligand displacement, radioligand).
For `CC(=O)Nc1ncc(S(N)(=O)=O)s1`, the Ki was 632 nM (cah (Neisseria gonorrhoeae, UniProt Q50940); enzyme activity, inhibitor).
For `CC(=O)N[C@@H](Cc1c[nH]c2ccccc12)C(=O)N[C@@H](CC(=O)O)C(=O)N[C@@H](CCCNC(=N)N)C(=O)N[C@@H](C)C(=O)N[C@H](C=O)CC(=O)O`, the Ki was 102 nM (Caspase-2 circularly permuted; enzyme activity, inhibitor; pH 6.5, 37 °C, together with: Z-VDVAD-AFC).
The Ki of `CCCCCCCCCCCCCCCC(=O)OCCCC` is reported as 6620 ± 60 nM (pheromone-binding protein 2 (Lymantria dispar, UniProt O16106); binding, competitive fluorescence binding; pH 5.5, pheromone-binding protein 2, together with: 1-NPN probe).
`CC(C)C[C@@H]1NC(=O)[C@H](C)NC(=O)[C@H](CC2CCN(C(=N)N)CC2)NC(=O)[C@H](CO)NC(=O)[C@H](CCCNC(=N)N)NC(=O)[C@H](CCCCN)NC(=O)[C@@H]2CCCN2C(=O)[C@@H](N)CSSC[C@@H](C(=O)O)NC(=O)[C@H](Cc2ccccc2)NC1=O` gave a Ki of 3420 nM (Plasminogen (Mus musculus, UniProt P20918); enzyme activity, inhibitor, absorbance; pH 7.4).
`CC(=O)N[C@@H](CC(=O)O)C(=O)N[C@H](C(=O)N[C@@H](CCCNC(=N)N)C(=O)N[C@H](C=O)CC(=O)O)[C@@H](C)O` has a Ki of 447 nM (Caspase-2; enzyme activity, inhibitor, fluorescence; pH 6.5).
For `Nc1nc2c(ncn2[C@@H]2O[C@H](COP(=O)(O)OP(=O)(O)O[C@H]3O[C@@H](CNC(=O)Cc4ccccc4)[C@@H](O)[C@@H](O)[C@@H]3F)[C@@H](O)[C@H]2O)c(=O)[nH]1`, the Ki was 208000 nM (FUT8; enzyme activity, inhibitor).
`CC(Oc1cc(-c2ccccc2)nc2cnccc12)C(=O)N(C)c1ccccc1` (centres unmarked) gave a Ki of 47 nM (TSPO (Homo sapiens, UniProt P30536); cell-free assay).
With `CCOc1cc(/C=N/O)ccc1OCC#CC1c2c(cc3c(c2OC)OCO3)CCN1C` (centres unmarked) the Ki was 2140 nM (CDK9 (Homo sapiens, UniProt P50750); enzyme activity, inhibitor).
With `Cc1cc(N)nc(CC2CNCC2OCCNCC(F)(F)c2ccc(F)cc2)c1` (centres unmarked) the Ki was 190000 nM (Nos2; enzyme activity, inhibitor, hemoglobin capture).
With `CSCC[C@H](NC(=O)[C@@H](N)CS)C(=O)N[C@@H](CCC(N)=O)C(=O)N[C@H](C(=O)N[C@@H](CO)C(=O)N[C@@H](CCCCN)C(=O)N[C@@H](CC(C)C)C(=O)O)[C@@H](C)O` the Ki was 50200 ± 9100 nM (Na(+)/H(+) exchange regulatory cofactor NHE-RF1, PDZ2 domain (NHERF1, Homo sapiens, UniProt O14745); binding to PDZ2 domain, inhibitor, fluorescence polarization).
For `Clc1ccc2ccc3[n+](c2c1)[Ir-3]12([c]4ccccc4-3)([c]3ccccc3-c3ccc4ccc(Cl)cc4[n+]31)[n+]1ccccc1-c1cccc[n+]12.F[P-](F)(F)(F)(F)F`, the Ki was 3.3 nM (Cyclin-dependent kinase 9, with cyclin T1 (CDK9, Homo sapiens, UniProt P50750); inhibitor; together with: ATP).
`CC(=O)N[C@H](C(=O)N[C@H](C(=O)N[C@@H](CCCCN)C(=O)N[C@H](C=O)CC(=O)O)C(C)C)[C@@H](C)O` has a Ki of 7760 nM (Caspase-2; enzyme activity, inhibitor, fluorescence; pH 6.5).
`Nc1nc2c(ncn2[C@@H]2O[C@H](COP(=O)(O)OP(=O)(O)O[C@H]3O[C@@H](CNC(=O)CCCc4ccccc4)[C@@H](O)[C@@H](O)[C@@H]3F)[C@@H](O)[C@H]2O)c(=O)[nH]1` has a Ki of 57100 nM (FUT8; enzyme activity, inhibitor).
For `CC(=O)NCC(=O)N[C@@H](CCC(=O)O)C(=O)N[C@@H](CO)C(=O)N1CCC[C@H]1C(=O)N[C@H](C=O)CC(=O)O`, the Ki was 5890 nM (Caspase-2; enzyme activity, inhibitor, fluorescence; pH 6.5).
`O=C(c1ccc(NCCF)cc1)C1CCN(C2Cc3ccccc3CC2O)CC1` (single isomer, unassigned; (-)) has a Ki of 5480 nM (Tmem97; ligand displacement, radioligand).
`CC(=O)N[C@H](C(=O)N[C@H](C(=O)N[C@@H](CCN)C(=O)N[C@H](C=O)CC(=O)O)C(C)C)[C@@H](C)O` has a Ki of 61700 nM (Caspase-2; enzyme activity, inhibitor, fluorescence; pH 6.5).
`Nc1nc2c(ncn2[C@@H]2O[C@H](COP(=O)(O)OP(=O)(O)O[C@H]3O[C@@H](CNC(=O)C(c4ccccc4)c4ccccc4)[C@@H](O)[C@@H](O)[C@@H]3F)[C@@H](O)[C@H]2O)c(=O)[nH]1` gave a Ki of 1300 nM (FUT1; enzyme activity, inhibitor).
The Ki of `CC(=O)N[C@H](C(=O)N[C@H](C(=O)N[C@@H](CN)C(=O)N[C@H](C=O)CC(=O)O)C(C)C)[C@@H](C)O` is reported as > 100000 nM (Caspase-2; enzyme activity, inhibitor, fluorescence; pH 6.5).
`CC1(C)NC(N)=Nc2nc3ccccc3n21` has a Ki of 12700 nM (PTR1; inhibitor; pH 3.7).
